Experimental data collected from several papers.
Each line is one published result; not all experiments were run side by side. ± marks the error that the study gave.

With `Cc1cc(Nc2nc(C[C@@]3(C(=O)O)CCN(Cc4cccc(Cl)c4F)[C@H](C)C3)cc(C)c2F)[nH]n1` the IC50 was 0.0544 µM (NCI-H1975; cell growth or viability, ATP luminescence; 5 days).
`O=C(NCc1ccco1)C1CCN(S(=O)(=O)c2ccc(Cl)cc2)CC1` gave an IC50 of greater than 50 µM (CHO; cell growth or viability, MTT).
`C[C@H]1O[C@@H](O[C@H]2CC[C@@]3(C)[C@H](CC[C@@H]4[C@@H]3CC[C@]3(C)[C@@H](C5=CC(=O)OC5)[C@@H](O)C[C@]43O)C2)C[C@H](O)[C@@H]1O` has an IC50 of 1.2 µM (BEAS-2B; cell growth or viability, MTT; 48 h).
For `COc1cc(/C=C(\C#N)C(=O)Nc2nnc(C(F)(F)F)s2)ccc1OC(=O)N1CCN(C(=O)CCCC(=O)NCCCC[C@@H]2NC(=O)[C@@H](Cc3ccc(O)cc3)NC(=O)[C@H](CC(=O)O)NC(=O)CNC(=O)[C@H](CCCNC(=N)N)NC2=O)CC1`, the IC50 was greater than 100 µM (HCC827; cell growth, MTT; 48 h).
`OC[C@H]1[C@@H](O)[C@@H](O)CN1Cc1ccc(I)cc1` gave an IC50 of 103 µM (K562-Tax; cell growth or viability, MTS; 72 h).
With `O=C(C[P+]([Au-][Cl])(c1ccccc1)c1ccccc1)[O][Ti+2][O]C(=O)C[P+]([Au-][Cl])(c1ccccc1)c1ccccc1.c1cc[cH-]c1.c1cc[cH-]c1` the IC50 was 1.4 µM (UO-31; cell viability, XTT; 72 h).
The IC50 of `C[C@@H]1N=C(c2ccccc2)c2cc(C#CCCCC(=O)NO)ccc2N(C)C1=O` is reported as 4.5 µM (U-937; apoptosis, flow cytometry; 48 h).
The IC50 of `C[C@@H](N)[C@H](O)CCCCCCCC(=O)CCCCCCCCCCCCCC[C@@H](O[C@@H]1O[C@H](CO)[C@@H](O)[C@H](O)[C@H]1O)[C@@H](N)CO` is reported as 19.8 µM (MCF-12A; cell growth or viability, resazurin; 96 h).
The IC50 of `CC(C)[C@@H]1NC(=O)[C@H](C)OC(=O)[C@@H](C(C)C)NC(=O)[C@@H](C(C)C)OC(=O)[C@H](C(C)C)NC(=O)[C@H](C)OC(=O)[C@@H](C(C)C)NC(=O)[C@@H](C(C)C)OC(=O)[C@H](C(C)C)NC(=O)[C@H](C)OC(=O)[C@@H](C(C)C)NC(=O)[C@H](C)OC1=O` is reported as 0.2 µM (U-87 MG; cell growth or viability, SRB; 72 h).
`[CH3][Ti+2][O]C(=O)c1ccc([S][Au][PH](c2ccccc2)(c2ccccc2)[c-]2cccc2)cc1.[Fe+2].c1cc[cH-]c1.c1cc[cH-]c1.c1cc[cH-]c1` gave an IC50 of 3.76 ± 0.21 µM (renal proximal tubule cells; cytotoxicity, XTT; 72 h).
The IC50 of `CCN1CCC(CN2c3ccccc3Sc3ccccc32)C1` (centres unmarked) is reported as 29.5 ± 8.7 µM (Vero 76; cytotoxicity).
`N#Cc1ccc(NC(=O)c2cccnc2)cc1Cl` gave an IC50 of greater than 30 µM (MRC5 lung fibroblasts; cytotoxicity, LDH release).
`Cc1cc(C)c(-n2ccn(-c3c(C)cc(C)cc3C)c2=[Se])c(C)c1.[Cl][Ag]` has an IC50 of 4 µM (HCT-15; cell growth or viability, MTT; 72 h).
With `N.N.O=C([O][Pt]([Cl])([Cl])[O]C(=O)c1ccc(P(c2ccccc2)c2ccccc2)cc1)c1ccc(P(c2ccccc2)c2ccccc2)cc1.[Cl][Au].[Cl][Au]` the IC50 was 7.06 µM (T24; cell growth or viability, resazurin; 72 h).
`C[C@H]1[C@H](OC(=O)CCC(=O)OCCc2ccc(O)cc2)O[C@@H]2O[C@@]3(C)CC[C@H]4[C@H](C)CC[C@@H]1[C@@]24OO3` has an IC50 of 6 ± 1.5 µM (SK-MEL-24; cell viability, MTT; 24 h, added: deferoxamine 20 µM, 1 h before).
For `CCC(C)C1OC(=O)C(NC(=O)c2cccc(NC=O)c2O)C(C)OC(=O)C(C(C)CC)OC(=O)C(C)(C)C(=O)C(Cc2ccccc2)OC1=O` (centres unmarked), the IC50 was 0.0015 µM (SGC-7901; cell growth or viability, CCK-8; 72 h).
The IC50 of `C1=CCCC=CCC1.C1=CCCC=CCC1.O=C(N=P12CN3CN(CN(C3)C1)C2)c1cccc[c]1[Pt+].O=C(N=P12CN3CN(CN(C3)C1)C2)c1cccc[c]1[Pt+].[Cl][Hg-]([Cl])[Cl].[Cl][Hg-]([Cl])[Cl].[Cl][Hg][Cl].[Cl][Hg][Cl]` is reported as 7.53 µM (MIA PaCa-2; cell growth or viability, MTT; 24 h).
`CCOC(=O)[C@H]1Cc2c(cc([N+](=O)[O-])cc2[N+](=O)[O-])[C@H](O)[C@]12C(=O)Nc1ccccc12` gave an IC50 of 64.7 µM (U-87 MG; cell growth or viability, MTT; 24 h).
`C[C@H]1C(OCCCCC[P+](c2ccccc2)(c2ccccc2)c2ccccc2)O[C@@H]2O[C@@]3(C)CCC4[C@H](C)CCC1[C@]42OO3` (some centres unmarked) has an IC50 of 0.348 µM (T24; cell growth or viability, MTT; 72 h).
`Cc1ccnc(-c2cc(C)ccn2)c1.[C-]#[O+].[C-]#[O+].[C-]#[O+].[Re+]` has an IC50 of 10.7 ± 0.5 µM (MRC-5; cell viability).
`CC(C)C[C@H](NC(=O)[C@H](CCCCN)NC(=O)[C@H](CC(C)C)NC(=O)[C@H](CC(C)C)NC(=O)[C@H](CCCCN)NC(=O)[C@H](CCCCN)NC(=O)[C@H](CC(C)C)NC(=O)[C@H](CC(C)C)NC(=O)[C@H](CCCCN)NC(=O)[C@H](CC(C)C)NC(=O)[C@H](CC(C)C)NC(=O)[C@H](CCCCN)NC(=O)[C@H](CCCCN)NC(=O)[C@H](CC(C)C)NC(=O)[C@@H](N)CSSC[C@H](N)C(=O)N[C@@H](CC(C)C)C(=O)N[C@@H](CCC(=O)O)C(=O)N[C@@H](CCC(=O)O)C(=O)N[C@@H](CC(C)C)C(=O)N[C@@H](CC(C)C)C(=O)N[C@@H](Cc1c[nH]cn1)C(=O)N[C@@H](Cc1c[nH]cn1)C(=O)N[C@@H](CC(C)C)C(=O)N[C@@H](CCC(=O)O)C(=O)N[C@@H](CCC(=O)O)C(=O)N[C@@H](CC(C)C)C(=O)N[C@@H](CC(C)C)C(=O)N[C@@H](Cc1c[nH]cn1)C(=O)N[C@@H](Cc1c[nH]cn1)C(N)=O)C(N)=O` has an IC50 of greater than 100 µM (4T1; cell growth or viability, MTT; pH 7.4).
With `C[C@H]1[C@H](OCCc2ccc(O)cc2)O[C@@H]2O[C@@]3(C)CC[C@H]4[C@H](C)CC[C@@H]1[C@@]24OO3` the IC50 was 3.01 µM (SK-MEL-24; cell growth or viability, MTT; 24 h).
The IC50 of `CCOC(=O)[C@@H]1Cc2c(cc([N+](=O)[O-])cc2[N+](=O)[O-])[C@@H](O)[C@@]12C(=O)Nc1ccc(Br)cc12` is reported as 28.6 µM (U-87 MG; cell growth or viability, MTT; 24 h).
For `C[C@H](NC(=O)[C@H](CCCNC(=N)N)NC(=O)[C@H](CCCNC(=N)N)NC(=O)[C@@H]1CCCN1C(=O)CNC(=O)[C@H](CCCNC(=N)N)NC(=O)[C@H](CCCNC(=N)N)NC(=O)CN)C(=O)N[C@@H](CC(N)=O)C(=O)N[C@@H](CCC(N)=O)C(=O)N[C@@H](CC(N)=O)C(=O)NCC(=O)N[C@H](C(=O)N[C@@H](CCCNC(=N)N)C(=O)N[C@@H](CCCNC(=N)N)C(=O)N[C@@H](CCCNC(=N)N)C(=O)N[C@@H](CCCNC(=N)N)C(=O)N[C@@H](CCCNC(=N)N)C(=O)N[C@@H](CCCNC(=N)N)C(=O)N[C@H](C(N)=O)[C@@H](C)O)[C@@H](C)O`, the IC50 was greater than 100 µM (Hs68; cell viability, CellTiter-Blue; 24 h, serum-free medium).
For `C1CCN(C2CCNCC2)CC1.CCCC(CCC)C(=O)[O][Pt]([OH])([Cl])[Cl].CCCCN`, the IC50 was 11.5 µM (seven cancer cell lines; cytotoxicity; mean over panel).
`CC(C)C[C@H](NC(=O)[C@H](CCCCN)NC(=O)[C@H](CC(C)C)NC(=O)[C@H](CC(C)C)NC(=O)[C@H](CCCCN)NC(=O)[C@H](CCCCN)NC(=O)[C@H](CC(C)C)NC(=O)[C@H](CC(C)C)NC(=O)[C@H](CCCCN)NC(=O)[C@H](CC(C)C)NC(=O)[C@H](CC(C)C)NC(=O)[C@H](CCCCN)NC(=O)[C@H](CCCCN)NC(=O)[C@@H](N)CC(C)C)C(N)=O` gave an IC50 of 11.2 µM (4T1; cell growth or viability, MTT; pH 7.4).
`CCc1c2c(nc3ccc(O)cc13)-c1cc3c(c(=O)n1C2)COC(=O)[C@@]3(CC)OC(=O)CCC(=O)O` gave an IC50 of 0.376 µM (CT26; cell growth or viability, MTT; 48 h).
For `C[C@H]1C(OCCCCCCCCCC[P+](c2ccccc2)(c2ccccc2)c2ccccc2)O[C@@H]2O[C@@]3(C)CCC4[C@H](C)CCC1[C@]42OO3` (some centres unmarked), the IC50 was 0.107 µM (T24; cell growth or viability, MTT; 72 h).
With `CC(C)C[C@@H](N)C(=O)NCC(=O)N[C@H](C)C(=O)N[C@H](CO)C(=O)N[C@H](Cc1c[nH]c2ccccc12)C(=O)N[C@H](Cc1c[nH]cn1)C(=O)N[C@H](CCCNC(=N)N)C(=O)N1CCC[C@@H]1C(=O)N[C@H](CC(=O)O)C(=O)N[C@H](CCCCN)C(=O)NCCCC[C@@H](NC(=O)[C@H]1CCCN1C(=O)[C@@H](CC(C)C)NC(=O)[C@H]1CCCN1C(=O)[C@@H](CCCNC(=N)N)NC(=O)[C@@H](CCCCN)NC(=O)[C@@H](CCC(N)=O)NC(=O)[C@@H](Cc1ccc(O)cc1)NC(=O)CNC(=O)[C@@H](CC(C)C)NC(=O)[C@@H](CS)NC(=O)[C@@H](CS)NC(=O)[C@@H](CCCCN)NC(=O)[C@@H](CC(=O)O)NC(=O)[C@H]1CCCN1C(=O)[C@@H](CCCNC(=N)N)NC(=O)[C@@H](Cc1c[nH]cn1)NC(=O)[C@@H](Cc1c[nH]c2ccccc12)NC(=O)[C@@H](CO)NC(=O)[C@@H](C)NC(=O)CNC(=O)[C@H](N)CC(C)C)C(N)=O` the IC50 was 0.5 µM (SUP-T1; cell migration).

Repeated from above:
With `Cc1cc(Nc2nc(C[C@@]3(C(=O)O)CCN(Cc4cccc(Cl)c4F)[C@H](C)C3)cc(C)c2F)[nH]n1` the IC50 was 0.0544 µM (NCI-H1975; cell growth or viability, ATP luminescence; 5 days).
`O=C(NCc1ccco1)C1CCN(S(=O)(=O)c2ccc(Cl)cc2)CC1` gave an IC50 of greater than 50 µM (CHO; cell growth or viability, MTT).
